Measured values from different studies.
± marks the error that the study gave.

CCCC(CCC(=O)O)NC(=O)c1ccc2c(c1)OCO2 (stereo not shown)  Cmax ratio (male Sprague-Dawley rats, plasma; oral, 200 mg/kg of parent drug; reference: 200 over 20 mg/kg dose): 4.63
CC[C@H](C)[C@H](NC(=O)[C@H](Cc1ccccc1)NC(=O)[C@H](CCC(=O)O)NC(=O)[C@H](CCCCN)NC(=O)[C@H](C)NC(=O)[C@H](C)NC(=O)[C@H](CCC(N)=O)NC(=O)CNC(=O)[C@H](CCC(=O)O)NC(=O)[C@H](CC(C)C)NC(=O)[C@H](Cc1ccc(O)cc1)NC(=O)[C@H](CO)NC(=O)[C@H](CO)NC(=O)[C@@H](NC(=O)[C@H](CC(=O)O)NC(=O)[C@H](CO)NC(=O)[C@@H](NC(=O)[C@H](Cc1ccccc1)NC(=O)[C@@H](NC(=O)CNC(=O)[C@@H](N)CCC(=O)O)[C@@H](C)O)[C@@H](C)O)C(C)C)C(=O)N[C@@H](C)C(=O)N[C@@H](Cc1c[nH]c2ccccc12)C(=O)N[C@@H](CC(C)C)C(=O)N[C@H](C(=O)N[C@@H](CCCCN)C(=O)NCC(=O)N[C@@H](CCCNC(=N)N)C(N)=O)C(C)C  time to appearance of GLP-1(32-36)amide (mouse, plasma; intraperitoneal, 500 µg): ≤ 5 min
CC(=O)N[C@H](CSSC[C@H](N)C(=O)O)C(=O)N[C@H](C)C(=O)N[C@H](CCCNC(=N)N)C(=O)N[C@H](CCCNC(=N)N)C(=O)N[C@H](CCCNC(=N)N)C(=O)N[C@H](C)C(=O)N[C@H](CCCNC(=N)N)C(N)=O  terminal half-life (human, healthy males, plasma; intravenous, 0.5 to 10 mg, overall across doses): ~19 h
COc1cc(NC(C)=O)c2c(c1O)-c1c(OC)c(OC)cc3c1C(C2)N(C)CC3 (stereo not shown)  remaining compound (rat brain homogenate; 5 µg/mL, time not given, three freeze-thaw cycles): 101 ± 4%
NC12CNCCNCC(NCc3ccc(CNC(=O)CCCC(=O)NCc4ccc(-c5nncnn5)cc4)cc3)(CNCCNC1)CNCCNC2.[64Cu+2]  absorbed dose (OLINDA dosimetry; stomach wall; pretargeting, 24 h interval): 0.0471 rad/mCi
CC(C)[C@H](NC(=O)[C@@H]1CCCN1C(=O)[C@H](CCCNC(=N)N)NC(=O)[C@H](CS)NC(=O)[C@H](Cc1c[nH]c2ccccc12)NC(=O)[C@H](CCCNC(=N)N)NC(=O)[C@@H](Cc1ccccc1)NC(=O)[C@H](Cc1c[nH]cn1)NC(=O)[C@H](CCC(=O)O)NC(=O)[C@H](CS)NC(=O)[C@H](CS)NC(=O)COCCOCCNC(=O)[C@@H]1CC(=O)N[C@@H](CCCNC(=N)N)C(=O)NCC(=O)N[C@@H](CC(=O)O)C(=O)N[C@H](Cc2ccc(O)cc2)C(=O)N1)C(N)=O [technetium-99m labelled]  tumour-to-tissue ratio (nude mouse, M21 melanoma xenograft, tumour over muscle; intravenous, 0.037 MBq, 2 h; reference: tumour over muscle): 12.2 ± 7.85
C/C(=N\OCCN(C)Cc1ccccc1)c1ccc(C(F)(F)F)cc1  metabolic stability ratio (liver microsomes; reference: human over mouse): ~3 fold
CC(C)CCCC(C)CCCC(C)CCO[C@@H]1O[C@H](CO)[C@@H](O[C@H]2O[C@H](CO)[C@@H](O)[C@H](O)[C@H]2O)[C@H](O)[C@H]1O (stereo partly shown)  salinity range for Winsor III (surfactant/n-octane/water; 1.8 wt%, 50 °C, water/oil ratio 1, with: 1-butanol 2.7%): 5 to 15 wt% NaCl
Cc1ccc(/N=N/c2c(O)ccc3ccccc23)c(C)c1  measured concentration (rat whole blood QC samples; 5.0 µg/L, 12 h, room temperature, short-term stability): 5.13 µg/L
Cc1nc(C)c(C=[N+]([O-])C(C)(C)C)nc1C  AUC(0-tau) (healthy human, both sexes, serum; oral, 1200 mg twice daily, 7 days): 81300 ng·h/mL
COC(=O)c1ccc2c(c1)NC(=O)/C2=C(\Nc1ccc2c(c1)CCN2C(=O)CN1CCOCC1)c1ccccc1  Vss relative to total body water (CD-1 mice, blood; intravenous): ~2.5
CC(C)CCN(Cc1ccc(F)cc1)c1nc(C#N)nc(N2CCOCC2)n1  plasma concentration (female CD-1 mice; intraperitoneal, 10 mg/kg, 7 h): 3.1 ng/mL
CC(C)(O)c1ncc([S@](N)(=O)=NC(=O)Nc2c3c(cc4c2CCC4)CCC3)s1  AUC(0-tau) (healthy human, fed; oral, 50 mg twice daily, day 14, tablet formulation, geometric mean): 61200 ng·h/mL
CCCC[C@H](NC(=O)[C@H](CC(C)C)N(C)C(=O)CNC(=O)[C@@H](NC(=O)[C@H](Cc1ccccc1)NC(=O)[C@H](CCCCN)NC(=O)[C@@H](N)CC(=O)O)C(C)C)C(N)=O  diastolic pressure decrease (anaesthetized spinalized rat; SC, 300 µg/kg; reference: baseline): 15%
Oc1cccc(-c2cccc(O)n2)n1.[Cl-].[Cl-].[Ru+2].c1cnc2c(c1)ccc1cccnc12.c1cnc2c(c1)ccc1cccnc12  logD (shake flask; octanol/acetate buffer; pH 4.00): 0.17
CC(C)(C)ONc1nc(Nc2ccnc(C(F)(F)F)c2)nc(-c2cccc(C(F)(F)F)n2)n1  tissue/plasma ratio (female Balb/cA nude mice xenograft; oral, 54.14 mg/kg, Cmax; reference: tumour over plasma): 3.5
NC[C@@H](C(=O)Nc1ccc(-c2cn[nH]c2)cc1)c1ccccc1  conjunctival redness score (OECD 405; New Zealand White rabbit; topical, 0.1 %, 48 h, day 3; direction not given): 0
CCCC1OC2CC3C4CCC5=CC(=O)C=CC5(C)C4C(O)CC3(C)C2(C(=O)COC(=O)CN(CC)CC)O1 (stereo not shown)  time to near-complete hydrolysis (concentration not given, pH 7.4, 37 °C): ≤ 24 h
CC(C)c1cnc(-c2cc(Cl)ccc2F)cc1Nc1ccncc1C(=O)NC(CO)CO  patients with treatment-related adverse event (monotherapy, refers to: diarrhoea; human patients; oral, dose not given, grade 5, phase I A): 0%
N=C(N)NCCC[C@@H]1NC(=O)[C@H](Cc2c[nH]c3ccccc23)NC(=O)[C@@H](CC2CCCCC2)NC(=O)[C@@H]2CCCN2C(=O)[C@@H](NC(=O)CCc2ccccc2)CCCNC1=O  elimination rate constant (C57BL/6J mice, spinal cord; oral, 1 mg/kg, two-compartment model): 0.00025 s⁻¹
NCCC(=O)N1Cc2ccccc2-c2c(nnn2-c2nc(N)c3ncn(C4OC(CO)C(O)C4O)c3n2)-c2ccccc21 (mixture of isomers)  brightness (methanol): 1.74 M⁻¹ cm⁻¹
NCCCC(=O)OCC(=O)c1cc(F)c(O)cc1F.O=C(O)C(F)(F)F  quantum yield (photolysis, refers to: rearranged acid appearance; unbuffered water): 0.2
Cn1c(=O)oc2ccc(-c3ccc(CC(C#N)NC(=O)C4CNCCCO4)c(F)c3)cc21 (stereo not shown)  subjects with adverse event (refers to: skin exfoliation; human; 60 mg, treatment-related, single dose, fasted): 16.7%
NCCCC(=O)OCC(=O)c1ccc(O)cc1F.O=C(O)C(F)(F)F  quantum yield (photolysis, refers to: GABA appearance; aqueous HEPES buffer with LiClO4; pH 7.3): 0.2
O=C(O)CN1CCCN2CCN(CC1)CCN(CC(=O)O)CC2 [copper-64 labelled]  kidney clearance (rat, male, juvenile Lewis; intravenous, 100 µCi, 24 h): 89.2%
CCCC(CCC)NC(=O)c1ccc(OC2OC(C(=O)O)C(O)C(O)C2O)c(OC)c1 (stereo not shown)  Cmax ratio (female Sprague-Dawley rats, plasma; oral, 50 mg/kg of parent drug; reference: 50 over 20 mg/kg dose): 1.83
[11CH3]c1ccc2nc(C3CCC3)n(-c3ccc4[nH]ncc4c3)c2n1  absorbed radiation dose (standard human adult, kidneys): 5.9 µSv/MBq
Cc1ccc(OCC(=O)O)cc1  AUC(0-last) ratio (Sprague-Dawley rat, male, plasma; oral gavage, 100 mg/kg of parent drug; reference: compound over parent drug): 949
CC(C)[C@H](NC(=O)CNC(=O)[C@H](CCC(N)=O)NC(=O)[C@H](C)N)C(=O)O  AUC(0-inf) (human, both sexes, plasma; intravenous infusion, 45 mg/kg/h, 2 h infusion, geometric mean): 1530 ng·h/mL
O=C([O-])CN1CCN(CC(=O)[O-])CCN(CC(=O)NCC2CCC(C(=O)NC(Cc3ccc4ccccc4c3)C(=O)NCCCCC(NC(=O)NC(CCC(=O)O)C(=O)O)C(=O)O)CC2)CCN(CC(=O)[O-])CC1.[44Sc+3] (stereo not shown)  intact complex (transmetallation stability; 24 h, 37 °C, with: Mg2+ 10 mM): 97.2 ± 0.8%
CCCC[C@H](NC(C)=O)C(=O)N[C@H]1CC(=O)NCCCC[C@@H](C(=O)N[C@@H](C(=O)N2CCC[C@@H]2C(N)=O)C(C)C)NC(=O)[C@H](Cc2c[nH]c3ccccc23)NC(=O)[C@H](CCCN=C(N)N)NC(=O)[C@@H](Cc2ccc3ccccc3c2)NC(=O)[C@@H]2CCCN2C1=O  plasma histamine (healthy dogs, plasma; subcutaneous, 2.25 mg/kg per day, day 5, 4 h post-dose, median): 14.8 ng/mL
C[C@H](NC(=O)COC(=O)[C@H](C)NC(=O)CO)C(=O)O  depolymerization half-life (water; pH 3, 50 °C): 53.5 h
COC(=O)[C@H](CSSC[C@H](NC(=O)[C@H](Cc1ccccc1)NC(=O)[C@H](Cc1ccccc1)NC(=O)OC(C)(C)C)C(=O)OC)NC(=O)[C@H](Cc1ccccc1)NC(=O)[C@H](Cc1ccccc1)NC(=O)OC(C)(C)C  particle size (HR-SEM; 100% aqueous medium; 2 mg/mL, hollow sphere assemblies): 279 ± 13.7 nm
O=c1c(Cc2ccccc2)nc2ccccc2n1-c1ccc([N+](=O)[O-])cc1[N+](=O)[O-]  safe concentration (MTT; rat primary colonocytes, Albino rat, male; 72 h, concentration at 100% viability): 0.108 ± 0.013 µM
Cc1cccc(C)c1OCC(N)c1ccccc1 (stereo not shown)  metabolic rate (mouse liver S9; 88 µM, 30 min, 37 °C): 0.21 ± 0.01 nmol/min/mg of protein
Oc1ccc2ccccc2c1/N=N/c1ccccc1  stability deviation (rat whole blood extract; 0.2 µg/L, 30 days, -20 °C, long-term storage): 8.5%
COc1ccc2cc(-c3ccc(-c4ccc(C)cn4)nc3)oc2c1  fluorescence quantum yield (EtOH; with: quinine bisulfate reference): 0.83

A few entries again:
Oc1cccc(-c2cccc(O)n2)n1.[Cl-].[Cl-].[Ru+2].c1cnc2c(c1)ccc1cccnc12.c1cnc2c(c1)ccc1cccnc12  logD (shake flask; octanol/acetate buffer; pH 4.00): 0.17
CCCC[C@H](NC(C)=O)C(=O)N[C@H]1CC(=O)NCCCC[C@@H](C(=O)N[C@@H](C(=O)N2CCC[C@@H]2C(N)=O)C(C)C)NC(=O)[C@H](Cc2c[nH]c3ccccc23)NC(=O)[C@H](CCCN=C(N)N)NC(=O)[C@@H](Cc2ccc3ccccc3c2)NC(=O)[C@@H]2CCCN2C1=O  plasma histamine (healthy dogs, plasma; subcutaneous, 2.25 mg/kg per day, day 5, 4 h post-dose, median): 14.8 ng/mL
O=c1c(Cc2ccccc2)nc2ccccc2n1-c1ccc([N+](=O)[O-])cc1[N+](=O)[O-]  safe concentration (MTT; rat primary colonocytes, Albino rat, male; 72 h, concentration at 100% viability): 0.108 ± 0.013 µM
NC12CNCCNCC(NCc3ccc(CNC(=O)CCCC(=O)NCc4ccc(-c5nncnn5)cc4)cc3)(CNCCNC1)CNCCNC2.[64Cu+2]  absorbed dose (OLINDA dosimetry; stomach wall; pretargeting, 24 h interval): 0.0471 rad/mCi
CCCC(CCC(=O)O)NC(=O)c1ccc2c(c1)OCO2 (stereo not shown)  Cmax ratio (male Sprague-Dawley rats, plasma; oral, 200 mg/kg of parent drug; reference: 200 over 20 mg/kg dose): 4.63
